Assay results from different studies.
Compare with care: the assays were run in different laboratories. ± gives the spread as reported.

Compound | assay | system | conditions | tissue uptake [%ID/g]
N=C(N)NCc1ccc(C(=O)NCCCC[C@H](NC(=O)N[C@@H](CCC(=O)O)C(=O)O)C(=O)O)cc1[131I] | – | SCID mouse, PC-3 xenografts, muscle | 21 h | 0.03 ± 0.02
CC(C)C[C@@H](NC(=O)[C@@H](CCCNC(=N)N)NC(=O)[C@@H](Cc1c[nH]cn1)NC(=O)[C@@H](Cc1c[nH]c2ccccc12)NC(=O)[C@@H](Cc1c[nH]cn1)NC(=O)[C@@H](Cc1ccccc1)NC(=O)[C@H](NC(=O)[C@@H](Cc1ccc(O)cc1)NC(=O)CNC(=O)CNC(=O)CCOCCOCCOCCNC(=O)CN1CCN(CC(=O)O)CCN(CC(=O)O)CC1)[C@H](C)O)C(=O)N[C@H](CC(N)=O)C(=O)N1CCC[C@@H]1C(=O)O [gallium-68 labelled] | γ-counting | male C57BL/6 mice, tumor | intravenous, 1.85 MBq, 60 min | 5 ± 1.24
COc1cc2ccnc(Cc3ccc(O[11CH3])c(OC)c3)c2cc1OC | – | Sprague-Dawley rats, blood | intravenous, 0.08333 h | 0.246 ± 0.015
N=C(N)NCc1ccc(C(=O)NCCCC[C@H](NC(=O)CCCCCCC(=O)NCCCC[C@H](NC(=O)N[C@@H](CCC(=O)O)C(=O)O)C(=O)O)C(=O)O)cc1[211At] | – | SCID mouse, PC-3 xenografts, thyroid | 1 h | 0.51 ± 0.16
C=Cc1cc(O)cc2nc(-c3ccc(O)c([76Br])c3)oc12 | – | female C57BL/6 mouse, kidney | 1 h, high dose | 1.58 ± 0.78
CCCC[C@H](NC(=O)CN1CCC(NC(=O)CN2CCC(NC(=O)CN3CCN(CC(=O)O)CCN(CC(=O)O)CCN(CC(=O)O)CC3)CC2)CC1)C(=O)N[C@H]1CC(=O)NCCCC[C@@H](C(N)=O)NC(=O)[C@H](Cc2c[nH]c3ccccc23)NC(=O)[C@H](CCCNC(=N)N)NC(=O)[C@@H](Cc2ccccc2)NC(=O)[C@H](Cc2c[nH]cn2)NC1=O [gallium-68 labelled] | – | C57BL/6J mice male B16-F10 tumour, muscle | 1 h post injection, unblocked | 0.1
O=C(c1ccc(F)cc1)C1CCN(C2Cc3c(cccc3OCC[18F])CC2O)CC1 (single isomer, unassigned; (-)) | – | Sprague-Dawley rat, male, cortex | 5 min post-injection | 0.777
N=C(N)NCc1ccc(C(=O)NCCCC[C@H](NC(=O)N[C@@H](CCC(=O)O)C(=O)O)C(=O)O)cc1[211At] | – | SCID mouse, PC-3 xenografts, heart | 21 h | 0.4 ± 0.11
O=C(O)CC[C@H](NC(=O)O[C@@H](CCCCNC(=O)c1ccc([18F])cc1)C(=O)O)C(=O)O | – | mouse, PC-3 PIP/flu xenografts, large intestine | 90 min | 0.18 ± 0.03
C[S]1CC[S]2CC[P](CO)(CO)[99Tc+]12.[C-]#[O+].[C-]#[O+].[C-]#[O+] | – | CF-1 mice, female, blood | intravenous, 4 h | 0.17
CCNc1cc2[o+]c3cc(NCC)c(C)cc3c(-c3ccccc3C(=O)OCCOCC[18F])c2cc1C | – | rat, kidney | 120 min | 8.21 ± 1.22
N=C(N)NCc1ccc(C(=O)NCCCC[C@H](NC(=O)CCCCCCC(=O)NCCCC[C@H](NC(=O)N[C@@H](CCC(=O)O)C(=O)O)C(=O)O)C(=O)O)cc1[131I] | – | SCID mouse, PC-3 xenografts, stomach | 1 h | 0.73 ± 0.26
COc1cc2ncnc(Oc3cccc(N[11C](=O)Nc4cc(C(C)(C)C(F)(F)F)on4)c3)c2cc1OC | – | Balb/c nude mouse, female, A375 melanoma xenograft, liver | 6.6 MBq, 30 min | 19.1 ± 0.71
CN[C@](C)(C[18F])C(=O)O | – | SCID mouse DU-145 xenograft, spleen | 15 min, post injection | 11 ± 3.3

A few entries again:
Compound | assay | system | conditions | tissue uptake [%ID/g]
N=C(N)NCc1ccc(C(=O)NCCCC[C@H](NC(=O)CCCCCCC(=O)NCCCC[C@H](NC(=O)N[C@@H](CCC(=O)O)C(=O)O)C(=O)O)C(=O)O)cc1[211At] | – | SCID mouse, PC-3 xenografts, thyroid | 1 h | 0.51 ± 0.16
C=Cc1cc(O)cc2nc(-c3ccc(O)c([76Br])c3)oc12 | – | female C57BL/6 mouse, kidney | 1 h, high dose | 1.58 ± 0.78
